Published values of several laboratories.
Parts stem from different laboratories: compare values within a part only.
UniProt Q15349, sequence (whole entry, looked up): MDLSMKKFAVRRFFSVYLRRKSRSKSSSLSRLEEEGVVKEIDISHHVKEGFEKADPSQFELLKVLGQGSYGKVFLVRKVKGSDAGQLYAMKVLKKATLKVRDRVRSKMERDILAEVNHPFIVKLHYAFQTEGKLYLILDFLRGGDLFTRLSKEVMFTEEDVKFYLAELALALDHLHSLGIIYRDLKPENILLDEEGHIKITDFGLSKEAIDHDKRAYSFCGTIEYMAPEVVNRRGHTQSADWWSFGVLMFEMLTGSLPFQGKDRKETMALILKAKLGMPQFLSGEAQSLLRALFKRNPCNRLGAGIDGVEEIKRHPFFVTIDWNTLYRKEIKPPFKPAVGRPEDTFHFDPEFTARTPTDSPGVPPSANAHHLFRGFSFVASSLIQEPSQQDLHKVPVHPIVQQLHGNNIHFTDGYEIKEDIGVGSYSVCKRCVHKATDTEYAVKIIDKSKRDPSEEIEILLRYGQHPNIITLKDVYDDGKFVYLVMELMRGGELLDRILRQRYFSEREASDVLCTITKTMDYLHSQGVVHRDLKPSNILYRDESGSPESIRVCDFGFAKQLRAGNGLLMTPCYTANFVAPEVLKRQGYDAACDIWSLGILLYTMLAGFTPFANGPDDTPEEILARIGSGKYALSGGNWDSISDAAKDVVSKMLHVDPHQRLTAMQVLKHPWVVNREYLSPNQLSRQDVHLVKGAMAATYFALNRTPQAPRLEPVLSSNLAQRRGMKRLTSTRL
UniProt Q96PY6, sequence (whole entry, looked up): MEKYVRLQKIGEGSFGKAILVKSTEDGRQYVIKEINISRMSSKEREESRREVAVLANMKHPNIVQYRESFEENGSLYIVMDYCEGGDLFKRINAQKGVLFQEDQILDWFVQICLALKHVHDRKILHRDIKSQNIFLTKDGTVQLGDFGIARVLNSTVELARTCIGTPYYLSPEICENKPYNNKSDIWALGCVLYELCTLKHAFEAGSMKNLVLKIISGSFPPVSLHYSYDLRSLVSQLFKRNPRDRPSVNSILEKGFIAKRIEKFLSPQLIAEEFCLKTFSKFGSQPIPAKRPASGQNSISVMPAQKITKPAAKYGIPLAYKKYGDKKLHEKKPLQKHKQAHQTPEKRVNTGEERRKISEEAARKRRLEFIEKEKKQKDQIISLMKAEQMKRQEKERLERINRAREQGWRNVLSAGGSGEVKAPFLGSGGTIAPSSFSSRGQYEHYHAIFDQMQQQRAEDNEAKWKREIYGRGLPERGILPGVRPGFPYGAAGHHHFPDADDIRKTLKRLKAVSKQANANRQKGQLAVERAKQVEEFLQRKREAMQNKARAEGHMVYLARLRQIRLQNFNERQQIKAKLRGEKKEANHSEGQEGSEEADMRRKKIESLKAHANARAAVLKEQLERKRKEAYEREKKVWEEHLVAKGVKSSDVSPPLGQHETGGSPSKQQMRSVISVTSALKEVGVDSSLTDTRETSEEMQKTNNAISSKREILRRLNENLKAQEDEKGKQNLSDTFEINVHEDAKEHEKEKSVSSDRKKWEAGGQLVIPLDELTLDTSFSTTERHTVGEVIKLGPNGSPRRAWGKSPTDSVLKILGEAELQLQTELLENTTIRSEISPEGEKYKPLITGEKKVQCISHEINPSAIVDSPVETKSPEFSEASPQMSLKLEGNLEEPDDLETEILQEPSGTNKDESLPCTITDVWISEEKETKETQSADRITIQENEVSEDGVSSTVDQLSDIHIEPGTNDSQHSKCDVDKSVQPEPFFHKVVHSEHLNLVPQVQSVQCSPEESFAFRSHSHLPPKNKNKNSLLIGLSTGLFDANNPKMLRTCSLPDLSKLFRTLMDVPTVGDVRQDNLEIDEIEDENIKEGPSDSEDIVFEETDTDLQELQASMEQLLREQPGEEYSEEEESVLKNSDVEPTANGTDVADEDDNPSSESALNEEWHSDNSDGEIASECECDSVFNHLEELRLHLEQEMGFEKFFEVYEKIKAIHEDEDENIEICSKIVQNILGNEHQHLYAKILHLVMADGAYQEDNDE
UniProt Q9UL54, sequence (whole entry, looked up): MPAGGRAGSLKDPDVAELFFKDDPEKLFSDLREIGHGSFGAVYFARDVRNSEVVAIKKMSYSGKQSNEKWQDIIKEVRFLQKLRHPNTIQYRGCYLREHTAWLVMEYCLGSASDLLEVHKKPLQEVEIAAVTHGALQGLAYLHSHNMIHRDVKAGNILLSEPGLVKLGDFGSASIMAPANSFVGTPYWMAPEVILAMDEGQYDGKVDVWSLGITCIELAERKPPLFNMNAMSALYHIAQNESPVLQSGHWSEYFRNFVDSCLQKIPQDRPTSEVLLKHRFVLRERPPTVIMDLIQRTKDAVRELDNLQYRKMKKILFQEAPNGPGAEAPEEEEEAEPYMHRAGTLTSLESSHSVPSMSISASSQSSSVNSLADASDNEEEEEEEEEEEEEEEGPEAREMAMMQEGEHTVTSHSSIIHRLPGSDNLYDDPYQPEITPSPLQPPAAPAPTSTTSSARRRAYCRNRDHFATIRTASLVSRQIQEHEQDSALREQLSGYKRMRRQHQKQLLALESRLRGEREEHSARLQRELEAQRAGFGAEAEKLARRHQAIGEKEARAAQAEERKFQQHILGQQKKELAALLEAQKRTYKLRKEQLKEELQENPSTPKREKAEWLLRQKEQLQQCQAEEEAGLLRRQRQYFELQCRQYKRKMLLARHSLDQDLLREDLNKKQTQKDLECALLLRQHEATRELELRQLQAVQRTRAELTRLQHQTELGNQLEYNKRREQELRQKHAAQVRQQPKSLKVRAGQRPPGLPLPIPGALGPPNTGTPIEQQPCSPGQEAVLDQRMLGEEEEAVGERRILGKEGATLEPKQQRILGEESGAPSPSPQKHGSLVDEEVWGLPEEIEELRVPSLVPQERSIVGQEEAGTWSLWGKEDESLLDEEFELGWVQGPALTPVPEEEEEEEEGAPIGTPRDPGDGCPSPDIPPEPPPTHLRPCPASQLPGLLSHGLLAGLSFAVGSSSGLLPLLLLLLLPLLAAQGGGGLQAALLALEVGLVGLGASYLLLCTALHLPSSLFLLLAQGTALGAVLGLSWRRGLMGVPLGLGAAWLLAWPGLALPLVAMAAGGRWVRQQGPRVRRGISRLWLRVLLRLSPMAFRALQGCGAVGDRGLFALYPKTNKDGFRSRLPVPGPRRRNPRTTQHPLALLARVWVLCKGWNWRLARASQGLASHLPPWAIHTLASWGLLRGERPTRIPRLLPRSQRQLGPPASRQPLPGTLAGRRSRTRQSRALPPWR
UniProt P29322, sequence (whole entry, looked up): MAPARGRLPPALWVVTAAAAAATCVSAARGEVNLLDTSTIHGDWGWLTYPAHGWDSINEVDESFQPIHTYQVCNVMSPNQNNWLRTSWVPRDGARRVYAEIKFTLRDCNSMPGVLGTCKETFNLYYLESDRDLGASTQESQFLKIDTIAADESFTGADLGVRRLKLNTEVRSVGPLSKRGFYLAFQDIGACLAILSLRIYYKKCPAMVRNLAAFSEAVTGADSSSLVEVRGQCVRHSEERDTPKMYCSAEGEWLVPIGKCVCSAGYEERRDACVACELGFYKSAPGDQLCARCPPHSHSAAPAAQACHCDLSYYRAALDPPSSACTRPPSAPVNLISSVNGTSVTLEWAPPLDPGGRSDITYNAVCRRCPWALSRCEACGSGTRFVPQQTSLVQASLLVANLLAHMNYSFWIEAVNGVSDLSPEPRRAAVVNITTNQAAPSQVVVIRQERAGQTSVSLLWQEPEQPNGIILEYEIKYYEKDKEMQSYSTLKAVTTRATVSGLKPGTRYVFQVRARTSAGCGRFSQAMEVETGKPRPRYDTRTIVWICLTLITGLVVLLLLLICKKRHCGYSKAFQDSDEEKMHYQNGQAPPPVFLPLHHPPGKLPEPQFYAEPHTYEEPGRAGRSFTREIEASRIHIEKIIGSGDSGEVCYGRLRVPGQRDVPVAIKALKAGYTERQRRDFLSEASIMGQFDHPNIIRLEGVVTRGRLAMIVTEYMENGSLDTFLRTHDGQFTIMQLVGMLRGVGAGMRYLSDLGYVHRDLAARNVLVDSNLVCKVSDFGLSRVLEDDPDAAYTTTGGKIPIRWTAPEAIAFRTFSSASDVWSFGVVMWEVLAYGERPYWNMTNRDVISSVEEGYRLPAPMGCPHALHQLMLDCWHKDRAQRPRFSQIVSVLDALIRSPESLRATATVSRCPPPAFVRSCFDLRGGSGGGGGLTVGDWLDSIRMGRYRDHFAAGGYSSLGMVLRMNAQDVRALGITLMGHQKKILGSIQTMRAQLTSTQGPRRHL
UniProt P78368, sequence (whole entry, looked up): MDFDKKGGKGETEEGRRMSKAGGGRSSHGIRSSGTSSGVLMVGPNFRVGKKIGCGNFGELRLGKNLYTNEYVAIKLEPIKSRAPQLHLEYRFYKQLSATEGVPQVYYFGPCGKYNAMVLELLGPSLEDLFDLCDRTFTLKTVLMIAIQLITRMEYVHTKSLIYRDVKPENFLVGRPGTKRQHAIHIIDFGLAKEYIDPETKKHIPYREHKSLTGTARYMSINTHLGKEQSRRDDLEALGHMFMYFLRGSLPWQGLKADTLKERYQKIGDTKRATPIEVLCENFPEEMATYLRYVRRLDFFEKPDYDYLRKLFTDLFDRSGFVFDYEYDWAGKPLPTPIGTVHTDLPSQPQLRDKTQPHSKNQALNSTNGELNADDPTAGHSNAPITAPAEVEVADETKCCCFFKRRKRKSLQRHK
UniProt Q9Y6M4, sequence (whole entry, looked up): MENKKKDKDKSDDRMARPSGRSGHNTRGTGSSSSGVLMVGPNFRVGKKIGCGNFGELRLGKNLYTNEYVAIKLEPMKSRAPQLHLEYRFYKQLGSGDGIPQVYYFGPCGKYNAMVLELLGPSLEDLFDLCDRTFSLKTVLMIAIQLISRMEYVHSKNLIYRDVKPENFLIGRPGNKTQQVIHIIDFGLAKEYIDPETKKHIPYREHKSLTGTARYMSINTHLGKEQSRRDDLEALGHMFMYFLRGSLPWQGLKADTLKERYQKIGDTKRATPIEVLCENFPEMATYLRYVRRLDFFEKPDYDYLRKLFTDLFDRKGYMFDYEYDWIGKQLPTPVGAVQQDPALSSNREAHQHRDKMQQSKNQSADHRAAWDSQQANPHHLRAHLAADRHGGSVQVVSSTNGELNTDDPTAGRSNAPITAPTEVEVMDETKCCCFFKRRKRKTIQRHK

Series 1
Structure (SMILES): CS(=O)(=O)c1cc(C2(NC(=O)c3cncc4c3cnn4-c3ccc(F)cc3)CC2)ccn1
Observed: cell-free assay
Technique: competition with immobilised ligand
Concentration: 1 µM
It gave 100% for remaining binding (Receptor tyrosine-protein kinase erbB-2 (ERBB2, Homo sapiens, UniProt P04626)).
It gave 100% for remaining binding (Ribosomal protein S6 kinase alpha-2, N-terminal kinase domain (RPS6KA2, Homo sapiens, UniProt Q15349)).
The remaining binding was 99% (Ephrin type-A receptor 8 (EPHA8, Homo sapiens, UniProt P29322)).
For Serine/threonine-protein kinase PAK 3 (PAK3, Homo sapiens, UniProt O75914): remaining binding read 100%.
For Mast/stem cell growth factor receptor Kit (KIT, Homo sapiens, UniProt P10721, D816H): remaining binding read 49%.
Serine/threonine-protein kinase SIK2 (SIK2, Homo sapiens, UniProt Q9H0K1) — remaining binding: 100%.

Series 2
Target: Diamine acetyltransferase 1 (Homo sapiens, UniProt P21673)
Mode: inhibitor
Concentration: 10 µM
Reference: control
Target sequence (P21673 1-171): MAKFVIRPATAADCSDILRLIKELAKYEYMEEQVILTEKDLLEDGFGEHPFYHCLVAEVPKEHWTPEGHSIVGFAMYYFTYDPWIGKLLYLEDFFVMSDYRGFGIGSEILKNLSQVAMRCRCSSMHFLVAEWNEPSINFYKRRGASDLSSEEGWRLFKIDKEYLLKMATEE
The remaining activity of NC(=O)NCCCC(N)C(=O)O (stereo not shown) is reported as 107%.
The remaining activity of O=C1CCc2ccccc21 is reported as 77.4%.
With Oc1cc(O)c2c(c1)O[C@H](c1ccc(O)c(O)c1)[C@H](O)[C@H]2c1c(O)cc(O)c2c1O[C@H](c1ccc(O)c(O)c1)[C@@H](O)C2 the remaining activity was 103%.
C[C@@H]1CC[C@]2(C(=O)O)CC[C@]3(C)C(=CC[C@@H]4[C@@]5(C)C[C@@H](O)[C@@H](O)C(C)(C)[C@@H]5CC[C@]43C)[C@@H]2[C@]1(C)O has a remaining activity of 90.6%.

Series 3
Cell line: mouse MPNST tumor cells
Technique: high-content immunofluorescence imaging
Measured: nuclear SOX9
Concentration: 10 µM
Time: 12 h
Notes: mean of 2 replicates
Reference: DMSO control
Reading: higher = more nuclear SOX9
For CC#CCOc1ccc(S(=O)(=O)N2CCSC(C)(C)[C@@H]2C(=O)NO)cc1, “nuclear SOX9 intensity” read 83.3 % of DMSO.
Under “nuclear SOX9 intensity”, Nc1ncnc2c1c(-c1cccc(OCc3ccccc3)c1)cn2C1CC(CN2CCCC2)C1 (stereo not shown) is recorded as 166 % of DMSO.
CC(=O)O[C@H]1C[C@@H]2CC[C@@H]3[C@H](CC[C@@]4(C)[C@H]3C[C@H]([N+]3(C)CCCCC3)[C@@H]4OC(C)=O)[C@@]2(C)C[C@@H]1N1CCCCC1 — result for “nuclear SOX9 intensity”: 104 % of DMSO.
OC(CN1CCC(Cc2ccc(F)cc2)CC1)c1ccc(Cl)cc1 (stereo not shown): “nuclear SOX9 intensity” 155 % of DMSO.
For CCC(CC)(NC(=O)C(C)C)C(=O)N[C@@H](CCCN=C(N)N)C(=O)NC1(C(=O)NC(c2ccc(F)cc2)c2ccc(F)cc2)CCCC1, “nuclear SOX9 intensity” read 96.1 % of DMSO.
CCOC(Cn1nc(-c2ccc3oc(N)nc3c2)c2c(N)ncnc21)OCC: “nuclear SOX9 intensity” 121 % of DMSO.

Series 4
SMILES: O=C1NC(=O)/C(=C/c2ccc3c(c2)OC(F)(F)O3)S1
Observed: enzyme activity
Mode: inhibitor
Concentration: 0.5 µM
Reference: control
The remaining activity was 91.4% (Casein kinase I isoform gamma-3 (CSNK1G3, Homo sapiens, UniProt Q9Y6M4)).
It gave 102% for remaining activity (Rhodopsin kinase GRK7 (GRK7, Homo sapiens, UniProt Q8WTQ7)).
For Mitogen-activated protein kinase kinase kinase 14 (MAP3K14, Homo sapiens, UniProt Q99558): remaining activity read 106%.
It gave 97.3% for remaining activity (Ribosomal protein S6 kinase alpha-2 (RPS6KA2, Homo sapiens, UniProt Q15349)).
Serine/threonine-protein kinase Nek6 (NEK6, Homo sapiens, UniProt Q9HC98) — remaining activity: 113%.
Macrophage-stimulating protein receptor (MST1R, Homo sapiens, UniProt Q04912) — remaining activity: 100%.
Serine/threonine-protein kinase Nek1 (NEK1, Homo sapiens, UniProt Q96PY6) — remaining activity: 79.6%.
It gave 96.9% for remaining activity (Serine/threonine-protein kinase TAO2 (TAOK2, Homo sapiens, UniProt Q9UL54)).
For Casein kinase I isoform gamma-2 (CSNK1G2, Homo sapiens, UniProt P78368): remaining activity read 84.5%.
The remaining activity was 98.3% (Tyrosine-protein kinase Lck (LCK, Homo sapiens, UniProt P06239)).
For Glycogen synthase kinase-3 beta (GSK3B, Homo sapiens, UniProt P49841): remaining activity read 92.3%.
It gave 96% for remaining activity (Tyrosine-protein kinase ABL2 (ABL2, Homo sapiens, UniProt P42684)).
For Ephrin type-A receptor 3 (EPHA3, Homo sapiens, UniProt P29320): remaining activity read 97.6%.
It gave 105% for remaining activity (Mitogen-activated protein kinase kinase kinase 5 (MAP3K5, Homo sapiens, UniProt Q99683)).
The remaining activity was 99.4% (Activin receptor type-1B (ACVR1B, Homo sapiens, UniProt P36896)).

A few entries again (series 4):
For Mitogen-activated protein kinase kinase kinase 14 (MAP3K14, Homo sapiens, UniProt Q99558): remaining activity read 106%.
It gave 97.3% for remaining activity (Ribosomal protein S6 kinase alpha-2 (RPS6KA2, Homo sapiens, UniProt Q15349)).
